Experimental data of several laboratories.
A part holds a random share of what one study measured.

Set 1 — cell line: HEK-293T; observed: pseudovirus infection; method: FDA-approved drug library screen; organism: VSV pseudotyped with SARS-CoV-2 spike; concentration: 10 µM; time: 16 h; baseline: vehicle-treated
SMILES	GFP-positive cells [%]
COC(=O)c1ccccc1O	100
O=C(O)c1cc(=O)c2c(OCC(O)COc3cccc4oc(C(=O)O)cc(=O)c34)cccc2o1	76.1
CO/N=C(\C(=O)N[C@@H]1C(=O)N2C(C(=O)O)=C(CSc3nc(=O)c(=O)[nH]n3C)CS[C@H]12)c1csc(N)n1	77.4
Cc1cnc(NC(=O)C2=C(O)c3ccccc3S(=O)(=O)N2C)s1	79.9
COc1cc2nc(N3CCN(C(=O)c4ccco4)CC3)nc(N)c2cc1OC	104
CCOC(=O)[C@H](CCc1ccccc1)N[C@H]1CCc2ccccc2N(CC(=O)O)C1=O	86.2

Set 2 — method: RNA Bind-n-Seq; molecule type: RNA; medium: in vitro; concentration: 365 nM; baseline: no-protein control; direction: higher = stronger binding
Target: RNA binding protein fox-1 homolog 2, RRM domain, GST-SBP tag (RBFOX2, Homo sapiens, UniProt O43251-10, residues 100-194)
Setting: natural RNA segment, single round, ends assumed
Shared flanks, not repeated: GGGAGUUCUACAGUCCGACGAUC … UGGAAUUCUCGGGUGCCAA
Residues (chain): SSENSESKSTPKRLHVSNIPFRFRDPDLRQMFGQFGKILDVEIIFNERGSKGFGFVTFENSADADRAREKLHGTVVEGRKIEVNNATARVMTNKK
Sequence	RBNS enrichment (R)
AGGGCCCUAACCUUCAGGGGUGGGGACACAAUUAAAGGAAGGGAAUGUAUAAAGAAAUUAUUCUUCAUUCCAAUAUAUGAAGAUACUUGCCUUUUCAGCAGCGAUGGUCU	0.328
UGUAGGUAGUUGGAAGUGUAGAGAGAAGAGAAGGUAAGACUUCUCAGUGAAUGGAAGGAUGUCUUGAUGCUCAAGAGUCCCCGCCCCCAAAGUACGGGUAAUUCAGCCUG	1.12
GAAUGACCAGGCCAGUGUUGUCACUGAGUGGUCCCCUGCUGGUUGGGAGUGAAGAGAAUCCAGGCUGGCAGAGCUGGAGCCAGUUGGGGAGCACGGUUCUGGGAGCUCUG	1.57
UGUUUUUCCCUCUAGGACAAACACUUACCAAAAUAUGCAACUUUUUUUUGGUGGGAAGAGAGAUUGUCCUGUGAUUUCUACCCAUUUCCUGAGGCCUGUGGAAAUAAACC	5.13
UGUUAACAAUGCAGUAGCCAGCACGUUCGAGGCGGUUUCCAGGAAGAGUGUGCUUGUCAUCUGCCACUUUCGGGAGGGUGGAUCCACUGUGCAGGAGUGGCCGGGGAAGC	0.863
GUUCUACUCAGUGCCAUAGAUAGACUGAGUCUUCUCUCGUAGGUUACCAUUACAUAGUAAUUUUGAUUCUGAAUUUCACAUUAAAUUAUUUGAGUUUAUACAGACCUAAA	0.352
CAUUCUCCGAGCCAGCUGUGUUUUACACAAAGCUGUACAAUUGUUAUUGGUUGAGGUCACAAAGAUGAAACUUGUGUCAUUGGAAGUUACCCCUUGCCCCACCCCCACCC	0.344
UUUGCUCCAGCCACUUUUCUUGUACAACUACGGGGAUGGACUAGAUGUCCUCUGGUCUUUUCCAUCUUCGCUUUCUAUGACUGUGGAAUAAAUGUUCAGACAGAAACUUC	0.665

Set 3 — action: inhibitor; concentration: 20 µM
Target: Replicase polyprotein 1ab, nsp13 helicase (rep, Severe acute respiratory syndrome coronavirus 2, UniProt P0DTD1)
SMILES	inhibition
Cc1cn([C@@H]2C[C@@H](O)[C@H](CO)O2)c(=O)[nH]c1=O	6.18%
CCN(CC)CCNC(=O)c1cc(S(C)(=O)=O)ccc1OC	-0.31%
COC1=CC(=O)C[C@@H](C)[C@]12Oc1c(Cl)c(OC)cc(OC)c1C2=O	6.05%
C/C(=C\c1csc(C)n1)[C@@H]1C[C@@H]2O[C@]2(C)CCC[C@H](C)[C@H](O)[C@@H](C)C(=O)C(C)(C)[C@@H](O)CC(=O)O1	7.54%
CNC(=O)CN1CCC(Oc2cc3c(Nc4cccc(Cl)c4F)ncnc3cc2OC)CC1	4.4%
N[C@@H](C(=O)O)c1ccc(O)c(C(=O)O)c1	5.4%
Cc1cc(O)cc(C)c1Cl	4.22%
CC(C)c1ccc(C(=O)c2cccs2)c(SCCCCCCCCN(C)C)n1	8.14%
O=[N+]([O-])c1ccc(Cl)c([N+](=O)[O-])c1	-0.25%
CC(=O)[C@H]1CC[C@H]2[C@@H]3CC=C4C[C@@H](O)CC[C@]4(C)[C@H]3CC[C@]12C	-3.23%
CO[C@@H]1[C@@H](OC(N)=O)[C@@H](O)[C@H](Oc2ccc3c(O)c(NC(=O)c4ccc(O)c(CC=C(C)C)c4)c(=O)oc3c2C)OC1(C)C	3.6%
CN1C(=O)N(c2ccc(C#N)c(C(F)(F)F)c2)C(=O)[C@@]1(CO)c1ccccc1	3.87%
O=c1[nH]ccc2cc(OC3CCNCC3)ccc12	5.7%
CCc1cnc(N2CCC(c3nc(COc4ccc(-n5cnnn5)cc4)cs3)CC2)nc1	5.88%
CNC(=O)c1cc(Oc2ccc(NC(=O)Nc3cc(C(C)(C)C)nn3-c3ccc4ncccc4c3)c(F)c2)ccn1	0.06%
CCOCCn1c(C2CCN(CCc3ccc(C(C)(C)C(=O)O)cc3)CC2)nc2ccccc21	3.88%
Cc1c(N)cccc1Cn1ccc(OCCc2cccs2)cc1=O	46.3%
C=CCN1CCCC1CNC(=O)c1cc2nn[nH]c2cc1OC (centres unmarked)	3.3%
CC(C(=O)O)c1ccc2c(c1)CC(=O)c1ccccc1S2 (centres unmarked)	6.04%
CC(=O)N1CCN(C)CC1	-1.59%
CC12CCC(C(Br)C1=O)C2(C)C (centres unmarked)	-3.06%
CO[C@@]1(NC(=O)CSCC#N)C(=O)N2C(C(=O)O)=C(CSc3nnnn3C)CS[C@@H]21	-1.73%
CN[C@@H]1C[C@@H](c2ccc(Cl)c(Cl)c2)c2ccccc21	7.73%
COC(=O)N1CC[C@@H]2[C@H]1CCC[C@@]2(O)C#Cc1cccc(C)c1	12.1%
Cc1cc(=O)n(-c2ccccc2)[nH]1	12.2%

Set 4 — method: protein-binding microarray; molecule type: double-stranded DNA, one strand shown; medium: in vitro; concentration: 250 nM; setting: 60-bp whole probe; added: salmon DNA 0.4 mg/ml; baseline: random background probes; direction: higher = stronger binding; shared flanks, not repeated: GCCTAGCAC … GTCTTGATTCGCTTGACGCTGCTG
Target: Interferon regulatory factor 5, full length, phosphomimetic (IRF5, Homo sapiens, UniProt Q13568-2, residues 1-514, K96S/S451D/S453D/S456D/S462D)
Sequence	log fluorescence [z-score]
TTAGGATTCGGACTGGGTTAGTGCTAG	0.0941
CGACATTTTTATTTGCCTTAGTGCTAG	0.758
TTAGAAGTGAGTTTCGATTAGTGCTAG	8.98
TAAGGTTTCCTTATCCTTTAGTGCTAG	0.799
TTAGCTATCGACTATCGGTTAGTGCTA	7.73
GACGATCTCAGTATCGTGACGTGCTAG	0.522
TTAGGTTCCGTTTTCCTTTAGTGCTAG	1.45
TTAGGTTGCGGTATCGGTTAGTGCTAG	5.15

Set 5 — observed: enzyme activity; concentration: 20 µM; setting: with DTT
Target: Replicase polyprotein 1ab, main protease (rep, Severe acute respiratory syndrome coronavirus 2, UniProt P0DTD1)
Compound	inhibition [%]
CCC(C)SSc1ncc[nH]1 (centres unmarked)	7.8
Cc1ccc(C)c(-n2sc3cc(F)ccc3c2=O)c1	99.4
COc1ccc(C(=O)n2nc(-c3ccccc3)nc2N)cc1OC	31.5
